Experimental data collected from several papers.
Protocols differ between the studies behind these lines. Several values in a cell are separate wells, animals, samples, runs or records. Numbers after ± are the reported error. No end group written: not given here.
B1: human calpain-1; sequence looked up; chain SEEIITPVYCTGVSAQVQKQRARELGLGRHENAIKYLGQDYEQLRVRCLQSGTLFRDEAFPPVPQSLGYKDLGPNSSKTYGIKWKRPTELLSNPQFIVDGATRTDICQGALGDCWLLAAIASLTLNDTLLHRVVPHGQSFQNGYAGIFHFQLWQFGEWVDVVVDDLLPIKDGKLVFVHSAEGNEFWSALLEKAYAKVNGSYEALSGGSTSEGFEDFTGGVTEWYELRKAPSDLYQIILKALERGSLLGCSIDISSVLDMEAITFKKLVKGHAYSVTGAKQVNYRGQVVSLIRMRNPWGEVEWTGAWSDSSSEWNNVDPYERDQLRVKMEDGEFWMSFRDFMREFTRLEICNLTPDALKSRTIRKWNTTLYEGTWRRGSTAGGCRNYPATFWVNPQFKIRLDETDDPDDYGDRESGCSFVLALMQKHRRRERRFGRDMETIGFAVYEVPPELVGQPAVHLKRDFFLANASRARSEQFINLREVSTRFRLPPGEYVVVPSTFEPNKEGDFVLRFFSEKSAGTVELDDQIQANLPDEQVLSEEEIDENFKALFRQLAGEDMEISVKELRTILNRIISKHKDLRTKGFSLESCRSMVNLMDRDGNGKLGLVEFNILWNRIRNYLSIFRKFDLDKSGSMSAYEMRMAIESAGFKLNKKLYELIITRYSEPDLAVDFDNFVCCLVRLETMFRFFKTLDTDLDGVVTFDLFKWLQLTMFA
B2: bicyclic; chain AATCHCRRSCYSTEYSYGTCTVMGINHRFCCL (also: bicyclic or more (positions not given here))
UniProt P00760, sequence (whole entry, looked up): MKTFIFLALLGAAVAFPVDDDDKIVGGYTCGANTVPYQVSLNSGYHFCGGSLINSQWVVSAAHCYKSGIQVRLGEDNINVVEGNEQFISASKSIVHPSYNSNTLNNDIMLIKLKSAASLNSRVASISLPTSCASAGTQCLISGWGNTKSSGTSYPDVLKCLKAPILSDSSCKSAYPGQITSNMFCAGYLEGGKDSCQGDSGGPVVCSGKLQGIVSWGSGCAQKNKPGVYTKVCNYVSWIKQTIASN

For `CTOP`, the retention time was 8.37 min (RP-HPLC; HALO Phenyl-hexyl column; 25 µM, acetic acid/methanol, 10 min gradient).
With `Polymyxin B` the brain concentration was 8920 ng/mL and 10000 ng/mL and 11100 ng/mL and 9530 ng/mL and 7910 ng/mL and 7710 ng/mL and 9200 ng/mL and 6820 ng/mL (LC-MS; Sprague-Dawley rat, right cortex homogenate; intracerebroventricular, 0.75 mg/kg, 1 h).
`Cy5.5` gave a t1/2 alpha of 27 min (IVIS fluorescence, two-compartment model; BALB/c mouse, tumour-free, blood).
The tissue uptake of `FNA / CGLSGLGVA-NH2 ([18F]FNA-labelled, C-amide)` is reported as 0.32 %ID/g (ex vivo gamma counting; peptide, glioblastoma mouse model, heart; 60 min post injection, with: 500-fold excess CooP blocking).
`coproporphyrin I` — result for “diurnal variation (Cmax-Cmean)/Cmean”: 21.1 ± 2.2% (human, plasma; dose not given, control period).
With `[177Lu]Lu-DOTA-TATE` the remaining compound was > 95% (mouse serum; up to 24 h, 37 °C).
`Teicoplanin` gave a recovery of 98.7% (QC solution; 7 days, 2–6 °C, low QC level).
`B1 (human calpain-1)`: “log2 fold change” 0.66 (PP6C (human); co-immunoprecipitation, IP-MS; CYB5R4 knockout cells; concentration not given; reference: CYB5R4 knockout over parental).
`colistin` gave an MIC of 32 µg/mL (Klebsiella pneumoniae; broth microdilution; clinical isolate RKI-No_600/16).
`regorafenib N-β-glucuronide`: “short-term stability accuracy” 102% (mouse plasma; 25 ng/mL, 8 h, room temperature).
`B2` has a molecular mass of 5.06 kDa (sedimentation velocity ultracentrifugation; 10 mM sodium phosphate; 40 µM, pH 7.4, 20 °C).
With `human ME2 T60S` the Hill coefficient was 1.68 ± 0.08 (enzyme activity, NADH absorbance; without fumarate, with: L-malate varied).
The alkaline phosphatase of `caspofungin` is reported as 167 U/L (adult ICU patients, mITT, serum; dose not given, EOT).
For `human nucleophosmin`, “log2 fold change” read -0.38 (CYB5R4 knockout human cells; PP6 interaction, 3xFLAG-PP6C IP-MS; concentration not given; reference: CYB5R4 KO over parental).
With `Pexiganan` the sliding time was 72 s (Serine protease 1 (PRSS1, Bos taurus, UniProt P00760); LC-SLIPS; synthetic urine; 0.1 mg/mL, pH 6.0, bovine trypsin, with: 500 ng/mL trypsinogen and 0.2 U/mL enterokinase).
`coproporphyrin I` has a concentration ratio of 6.78 (human, serum; oral, 20 mg ezetimibe, 1.33 h, geometric mean ezetimibe alone; reference: at 1.33 h over pre-dose).
For `protopine`, “amount in maternal perfusate” read 23.1 ± 4.8% (placenta perfusion; 360 min; reference: initial amount).
The Tmax of `coproporphyrin III` is reported as ≤ 120 min (human, serum; 20 mg ezetimibe, ezetimibe alone).
The plasma concentration of `equol sulfate` is reported as 825 nM (human, plasma; dose not given, median).
`C-peptide` gave a bias of -0.6% (LC-MS/MS; pooled human serum, high level; 24 h, 4 °C, stability before sample preparation; reference: untreated control).

Some of these lines once more:
`regorafenib N-β-glucuronide`: “short-term stability accuracy” 102% (mouse plasma; 25 ng/mL, 8 h, room temperature).
